Published values gathered from unrelated publications.
Protocols differ between the studies behind these lines. Values joined by “and” are separate records of one study, mostly repeats; a detail may differ. ± gives the spread as reported.

Structure (SMILES) | test | test system | conditions | how to read | endpoint | result
O=S(=O)(Nc1ccccc1)c1ccc(NC(=S)Nc2ccccc2)cc1 | refers to: TRIG | male mouse, blood | oral, 5 mg/kg daily, 14 days |  | blood chemistry level | 214 mg/dL
COc1ncccc1-c1cnn2ccc(N3CCN(C(=O)OC(C)C)CC3)nc12 |  | mouse, SNL model, plasma | oral, 10 mg/kg, 120 min |  | drug concentration | 3.3 µM
COc1cc2c(Oc3ccc4[nH]c(C)cc4c3F)ccnc2cc1OCC1(N)CC1 |  | paediatric recurrent refractory sarcoma | 10 mg |  | grade 1 or 2 Cholesterol elevation | 25%
CC(C)[C@@H]1NC(=O)CNC(=O)[C@H](CC(N)=O)NC(=O)[C@H](CCCNC(=N)N)NC(=O)[C@H](Cc2ccc(O)cc2)NC(=O)[C@H](C(C)C)NC(=O)[C@@H](NC(=O)[C@@H](NC(=O)[C@H](CC(N)=O)NC(=O)[C@H](Cc2c[nH]c3ccccc23)NC(=O)[C@H](C)NC(=O)[C@H](Cc2ccccc2)NC(=O)CN)C(C)C)CSSC[C@@H](C(=O)N[C@@H](Cc2cnc[nH]2)C(=O)N[C@@H](CCCNC(=N)N)C(=O)N[C@@H](CCCNC(=N)N)C(=O)N[C@@H](C)C(=O)N[C@@H](CC(N)=O)C(N)=O)NC(=O)[C@H](C(C)C)NC(=O)[C@H](CCCNC(=N)N)NC1=O |  | ICR mice, blood | intraductal mammary, 5 mg/kg, day 5 |  | monocytes | 2.69 ± 0.15%
Cc1ccccc1C(=O)NN=Cc1ccc(O)c(Br)c1 |  | normal C3H/HeN mouse, plasma | intravenous, 1.6 mg/kg, 30 min |  | plasma concentration | 106 ng/mL
CN[C@@H](C)C(=O)N[C@H]1CN(S(=O)(=O)c2cccc(S(=O)(=O)N3CC[C@H]4CC[C@@H](C(=O)NC(c5ccccc5)c5ccccc5)N4C(=O)[C@@H](NC(=O)[C@H](C)NC)C3)c2)CC[C@H]2CC[C@@H](C(=O)NC(c3ccccc3)c3ccccc3)N2C1=O |  | patients advanced solid tumours | dose not given, all grades all doses |  | treatment-related asthenia | 3.6%
CC(C)[C@@H]1CC[C@@H](C)C[C@@H]1O | acute oral toxicity OECD | Swiss albino mice, serum | oral, 1000 mg/kg |  | total bilirubin | 0.44 ± 0.08 mg/dL
CC[C@H](C)[C@H](NC(=O)[C@H](CCCCN)NC(=O)[C@H](CCC(=O)O)NC(=O)[C@H](CCCCN)NC(=O)[C@H](CO)NC(=O)[C@H](CCCCN)NC(=O)[C@H](CCCNC(=N)N)NC(=O)[C@H](Cc1ccccc1)NC(=O)[C@H](Cc1ccccc1)NC(=O)[C@H](CC(=O)O)NC(=O)CNC(=O)[C@H](CC(C)C)NC(=O)[C@@H](N)CC(C)C)C(=O)NCC(=O)N[C@@H](CCCCN)C(=O)N[C@@H](CCC(=O)O)C(=O)N[C@@H](Cc1ccccc1)C(=O)N[C@@H](CCCCN)C(=O)N[C@@H](CCCNC(=N)N)C(=O)N[C@H](C(=O)N[C@H](C(=O)N[C@@H](CCC(N)=O)C(=O)N[C@@H](CCCNC(=N)N)C(=O)N[C@H](C(=O)N[C@@H](CCCCN)C(=O)N[C@@H](CC(=O)O)C(=O)N[C@@H](Cc1ccccc1)C(=O)N[C@@H](CC(C)C)C(=O)N[C@@H](CCCNC(=N)N)C(=O)N[C@@H](CC(N)=O)C(=O)N[C@@H](CC(C)C)C(=O)N[C@H](C(=O)N1CCC[C@H]1C(=O)N[C@@H](CCCNC(=N)N)C(=O)N[C@H](C(=O)N[C@@H](CCC(=O)O)C(=O)N[C@@H](CO)C(=O)O)[C@@H](C)O)C(C)C)[C@@H](C)CC)C(C)C)[C@@H](C)CC | LC-MS | 50% pooled human serum | 40 µM, 60 min, pH 7.5, 37 °C | baseline: 0 h | remaining intact peptide | 3.22% and 4.18%
O=C(c1ccc(F)c(F)c1Nc1ccc(I)cc1F)N1CC(O)([C@@H]2CCCCN2)C1 |  | patients aged 2 to 6 years | oral, dose not given |  | SAE leading dose modification | 20%
CO[C@H]1C[C@@H]2CC[C@@H](C)[C@@](O)(O2)C(=O)C(=O)N2CCCC[C@H]2C(=O)O[C@H]([C@H](C)C[C@@H]2CC[C@@H](OC(=O)NCCOCCOCCOCCOCCOCCOCCOCCOCCC(=O)N3CCc4cc(Cn5nc(-c6ccc7oc(N)nc7c6)c6c(N)ncnc65)ccc4C3)[C@H](OC)C2)C[C@@H](O)[C@H](C)/C=C(\C)[C@@H](O)[C@@H](OC)C(=O)[C@H](C)C[C@H](C)/C=C/C=C/C=C/1C |  | patients with advanced solid tumours | intravenous, 1.6 mg/3 mg weekly, any grade |  | Neutropenia AE leading to dose reduction | 0%
Clc1ccc(-c2cc(Cl)c(Cl)cc2Cl)cc1Cl |  | whole cow milk | 200 nM nominal |  | dose fraction in skim milk | 5.5%
O=C1Nc2cc3[nH]nc(-c4ccncc4)c3cc2CN1Cc1ccccc1 | CTCAE v4.03 | advanced solid tumour patients | intravenous, 9.6 mg/kg, schedules 1/2 |  | patients with fatigue | 33%
[O-][S+]1CCc2nc(N3CCC(c4ncc(Cl)cn4)CC3)nc(NC3(CO)CCC3)c21 (centres unmarked) | refers to: Headache | healthy male humans | single dose, all groups |  | adverse event incidence | 33.3%
O=C(Nc1ccc2c(c1)B(O)OC2)c1ccccc1OCc1ccccc1 | PAMPA | pre-coated trilayer membrane | 200 µM, 5 h, pH 7.4, acceptor plate, PBS |  | acceptor concentration | 5.2 ± 0.8 µM

Repeated from above:
Structure (SMILES) | test | test system | conditions | how to read | endpoint | result
CC(C)[C@@H]1CC[C@@H](C)C[C@@H]1O | acute oral toxicity OECD | Swiss albino mice, serum | oral, 1000 mg/kg |  | total bilirubin | 0.44 ± 0.08 mg/dL
CC[C@H](C)[C@H](NC(=O)[C@H](CCCCN)NC(=O)[C@H](CCC(=O)O)NC(=O)[C@H](CCCCN)NC(=O)[C@H](CO)NC(=O)[C@H](CCCCN)NC(=O)[C@H](CCCNC(=N)N)NC(=O)[C@H](Cc1ccccc1)NC(=O)[C@H](Cc1ccccc1)NC(=O)[C@H](CC(=O)O)NC(=O)CNC(=O)[C@H](CC(C)C)NC(=O)[C@@H](N)CC(C)C)C(=O)NCC(=O)N[C@@H](CCCCN)C(=O)N[C@@H](CCC(=O)O)C(=O)N[C@@H](Cc1ccccc1)C(=O)N[C@@H](CCCCN)C(=O)N[C@@H](CCCNC(=N)N)C(=O)N[C@H](C(=O)N[C@H](C(=O)N[C@@H](CCC(N)=O)C(=O)N[C@@H](CCCNC(=N)N)C(=O)N[C@H](C(=O)N[C@@H](CCCCN)C(=O)N[C@@H](CC(=O)O)C(=O)N[C@@H](Cc1ccccc1)C(=O)N[C@@H](CC(C)C)C(=O)N[C@@H](CCCNC(=N)N)C(=O)N[C@@H](CC(N)=O)C(=O)N[C@@H](CC(C)C)C(=O)N[C@H](C(=O)N1CCC[C@H]1C(=O)N[C@@H](CCCNC(=N)N)C(=O)N[C@H](C(=O)N[C@@H](CCC(=O)O)C(=O)N[C@@H](CO)C(=O)O)[C@@H](C)O)C(C)C)[C@@H](C)CC)C(C)C)[C@@H](C)CC | LC-MS | 50% pooled human serum | 40 µM, 60 min, pH 7.5, 37 °C | baseline: 0 h | remaining intact peptide | 3.22% and 4.18%
